Experimental data gathered from unrelated publications.
Each numbered part is a random draw from the data of one study; scales do not carry over between parts. Positions count from the first letter of the parent shown.
UniProt P68400, sequence (whole entry, looked up): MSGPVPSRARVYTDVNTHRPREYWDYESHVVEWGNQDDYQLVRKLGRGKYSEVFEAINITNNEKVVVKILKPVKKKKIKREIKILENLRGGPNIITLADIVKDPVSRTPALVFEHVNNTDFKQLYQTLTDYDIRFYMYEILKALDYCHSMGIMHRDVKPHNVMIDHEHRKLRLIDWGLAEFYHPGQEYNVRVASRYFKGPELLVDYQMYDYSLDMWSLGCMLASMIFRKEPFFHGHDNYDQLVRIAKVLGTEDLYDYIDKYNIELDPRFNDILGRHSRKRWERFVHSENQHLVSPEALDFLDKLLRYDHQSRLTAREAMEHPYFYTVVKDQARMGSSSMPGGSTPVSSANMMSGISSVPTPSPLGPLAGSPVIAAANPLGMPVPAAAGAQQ

Set 1 — target: CCNB2, cyclin fold, Cln2 fusion (human); method: yeast growth competition, sequencing; medium: yeast; notes: strong parent motif; baseline: not given; reading: higher = stronger binding
Starting sequence: viral docking peptide; YKVKRRLVFGADD; partner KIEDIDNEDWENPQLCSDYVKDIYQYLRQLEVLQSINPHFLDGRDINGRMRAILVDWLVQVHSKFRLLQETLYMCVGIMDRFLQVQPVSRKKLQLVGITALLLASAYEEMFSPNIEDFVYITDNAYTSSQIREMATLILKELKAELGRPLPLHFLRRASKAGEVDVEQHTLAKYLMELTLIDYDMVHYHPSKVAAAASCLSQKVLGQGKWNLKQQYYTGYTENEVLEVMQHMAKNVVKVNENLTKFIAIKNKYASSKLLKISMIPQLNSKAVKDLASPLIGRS
| Variant | normalised enrichment score |
| --- | --- |
| R6V | 0.678 |
| K4F | -0.386 |
| L7E | 0.313 |
| D12L | 0.809 |
| R6M | 1 |
| K2A | 1.79 |
| V8K | 1.46 |
| V8F | 1.79 |

Set 2 — target: vanadate, free oxyanion; method: microfluidic competitive inhibition; medium: in vitro, cell-free expressed; concentration: not given; reading: lower = stronger binding
Notes: derived from inhibition constants, unchanged parent 676 nM
Starting sequence: PafA, mature enzyme, eGFP fusion (Elizabethkingia meningoseptica, UniProt Q9KJX5); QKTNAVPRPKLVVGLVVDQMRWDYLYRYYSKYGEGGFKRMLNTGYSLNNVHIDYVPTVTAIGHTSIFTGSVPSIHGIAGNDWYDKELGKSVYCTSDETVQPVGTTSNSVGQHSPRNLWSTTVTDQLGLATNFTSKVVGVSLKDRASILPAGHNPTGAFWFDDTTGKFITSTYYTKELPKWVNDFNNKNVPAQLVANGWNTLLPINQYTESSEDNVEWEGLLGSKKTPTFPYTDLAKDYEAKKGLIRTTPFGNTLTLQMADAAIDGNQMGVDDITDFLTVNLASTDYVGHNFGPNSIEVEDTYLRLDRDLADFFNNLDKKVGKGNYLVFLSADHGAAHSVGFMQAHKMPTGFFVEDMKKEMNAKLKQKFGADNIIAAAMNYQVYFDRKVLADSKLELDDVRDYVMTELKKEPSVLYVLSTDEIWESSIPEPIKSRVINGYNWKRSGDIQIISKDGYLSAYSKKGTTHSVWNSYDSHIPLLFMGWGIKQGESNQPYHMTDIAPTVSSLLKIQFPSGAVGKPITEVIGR
| Variant | oxyanion analog dissociation constant |
| --- | --- |
| W423V | 0.711 µM |
| P293G | 0.711 µM |
| D143G | 3.8 µM |
| S211V | 0.698 µM |
| A515G | 0.774 µM |
| E410V | 0.778 µM |
| M378V | 0.688 µM |
| T174G | 0.787 µM |

Set 3 — read-out: binding; method: phage display NGS; molecule type: peptide; baseline: input library
Target: UDP-N-acetylglucosamine--peptide N-acetylglucosaminyltransferase 110 kDa subunit (OGT, Homo sapiens, UniProt O15294)
UniProt O15294, sequence (whole entry, looked up): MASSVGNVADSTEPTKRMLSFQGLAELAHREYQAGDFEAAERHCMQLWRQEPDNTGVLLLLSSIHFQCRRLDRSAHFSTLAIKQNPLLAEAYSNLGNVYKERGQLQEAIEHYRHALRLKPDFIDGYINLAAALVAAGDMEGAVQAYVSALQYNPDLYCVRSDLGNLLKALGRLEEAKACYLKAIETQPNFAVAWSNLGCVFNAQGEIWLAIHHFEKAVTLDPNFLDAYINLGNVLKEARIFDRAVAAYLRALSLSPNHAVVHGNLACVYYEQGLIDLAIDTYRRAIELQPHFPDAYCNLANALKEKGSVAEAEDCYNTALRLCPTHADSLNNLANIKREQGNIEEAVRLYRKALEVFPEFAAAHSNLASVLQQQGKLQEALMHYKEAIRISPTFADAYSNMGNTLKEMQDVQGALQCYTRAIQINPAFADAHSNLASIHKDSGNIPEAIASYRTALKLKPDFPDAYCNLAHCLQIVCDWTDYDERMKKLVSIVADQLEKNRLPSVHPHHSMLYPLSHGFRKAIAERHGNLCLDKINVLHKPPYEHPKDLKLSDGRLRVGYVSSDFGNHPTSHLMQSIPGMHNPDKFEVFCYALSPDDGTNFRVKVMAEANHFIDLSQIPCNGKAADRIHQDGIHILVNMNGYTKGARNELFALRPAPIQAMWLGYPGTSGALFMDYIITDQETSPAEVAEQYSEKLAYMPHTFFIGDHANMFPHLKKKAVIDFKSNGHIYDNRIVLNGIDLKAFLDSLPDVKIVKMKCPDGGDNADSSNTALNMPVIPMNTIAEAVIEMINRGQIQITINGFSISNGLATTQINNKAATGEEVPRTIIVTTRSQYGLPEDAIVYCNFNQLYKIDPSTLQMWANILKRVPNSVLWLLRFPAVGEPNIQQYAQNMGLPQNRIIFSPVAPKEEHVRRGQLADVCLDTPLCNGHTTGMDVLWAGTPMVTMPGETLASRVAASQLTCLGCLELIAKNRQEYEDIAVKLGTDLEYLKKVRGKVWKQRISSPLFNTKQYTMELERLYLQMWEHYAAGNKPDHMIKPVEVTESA
| Molecule | minimum log2 enrichment ratio |
| --- | --- |
| QHEFQRILSHHHSYS | 2.19 |
| QMNYIHWWIQKDHK | 1.19 |
| HVQNGHTHKIHAHEV | 2.08 |
| ENVVWPHYHHHSTYI | 1.97 |
| HRNTVQHWQQVYPIH | 2.35 |
| HYHPNHHGSYSLRN | 2.82 |
| NPHAHHIVSHTGFVH | 2.11 |
| HSSDIPEHRHHEHIR | 3.49 |

Mixed results
| SMILES | target | test | setting | how to read | quantity | value |
| --- | --- | --- | --- | --- | --- | --- |
| N/C(=N\[N+](=O)[O-])N/N=C\c1ccc(-c2cccc([N+](=O)[O-])c2)o1 | Casein kinase II subunit alpha (CSNK2A1, Homo sapiens, UniProt P68400) | enzyme activity, inhibitor | 0.5 µM | baseline: control | remaining activity | 91% |

Excerpt of the above (set 3):
| Molecule | minimum log2 enrichment ratio |
| --- | --- |
| NPHAHHIVSHTGFVH | 2.11 |
| HVQNGHTHKIHAHEV | 2.08 |
| QHEFQRILSHHHSYS | 2.19 |
